Measured values from different studies.
A part holds a random share of what one study measured. Changes are numbered by the printed parent chain.

Sample 1
Target: Sal-like protein 4, full length isoform B (SALL4, Homo sapiens, UniProt Q9UJQ4-2, residues 1-616)
Technique: universal PBM
Molecule type: double-stranded DNA, one strand shown
Medium: in vitro
Tested at: not given
Notes: 8-mer, flanks averaged, mean of replicates
Reading: higher = stronger binding
| Sequence | E-score |
| --- | --- |
| CCTGGCTC | -0.271 |
| CTAGCCGA | -0.165 |
| GGTCCACA | -0.21 |
| AAGCGATC | -0.00225 |
| AACGAACC | -0.0681 |
| ACTGCAGT | -0.0746 |
| AATTAGCG | 0.0568 |
| CTATCGAG | -0.0588 |
| AGTTGCAC | -0.179 |
| GCTGTGAC | -0.118 |
| AGAGTCTA | 0.178 |
| AGTCGGGG | -0.111 |
| AAGCATGT | 0.145 |
| GCTCACCA | -0.205 |
| GTATTGGA | 0.148 |
| CCACTGTC | -0.243 |
| CACACATC | -0.141 |
| AAATAATG | 0.318 |
| CGTCAAGC | -0.231 |
| TAAAGCAA | 0.215 |

Sample 2
Target: Histone acetyltransferase KAT6A, winged helix 1, GST fusion (KAT6A, Homo sapiens, UniProt Q92794, residues 1-85)
Technique: protein binding microarray
Molecule type: double-stranded DNA, one strand shown
Medium: in vitro
Tested at: not given
Notes: 8-mer, flanks averaged, mean of 2 arrays, mostly near background
Reference: not given
Reading: higher = stronger binding
Construct (chain): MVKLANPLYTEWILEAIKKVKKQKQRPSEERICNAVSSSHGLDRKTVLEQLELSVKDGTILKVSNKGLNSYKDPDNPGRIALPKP
| Sequence | E-score |
| --- | --- |
| TCTATAGA | -0.0345 |
| ATGAACGG | 0.151 |
| GAATAGGA | -0.0158 |
| GAGGATAC | -0.124 |
| CAGCGTTC | 0.0468 |
| GCTCTCTA | -0.0274 |
| CGGGCCAG | 0.131 |
| GAGCCCCC | 0.0948 |
| GTATTGCA | -0.0455 |
| AAACGGTA | 0.19 |
| GTCAGGAC | -0.188 |
| GTAGTAAA | -0.179 |
| AAGCCGCC | 0.406 |
| TGTCGACA | -0.205 |
| CTCGCCAG | -0.0178 |
| CTCTGATC | -0.12 |
| CCGTAACA | 0.236 |
| CGGTCCCA | 0.135 |
| ATCAGGGA | -0.195 |
| AACGTTCT | -0.108 |
| ATTCCAGG | -0.172 |
| ATCTTGAA | -0.192 |
| ACTAGCAA | -0.0844 |
| ATACATGA | -0.0903 |
| TAGACGCA | -0.0012 |

Sample 3
Target: ABI1, truncated, D143A, DHFR fusion (Arabidopsis thaliana)
Technique: DHFR PCA, deep sequencing
Medium: yeast
Notes: methotrexate growth selection, single substitutions
Added: (+)-ABA 4.8 µM
Reference: wild-type fitted maximum
Reading: higher = stronger binding
Starting sequence: PYL1, truncated, DHFR fusion (Arabidopsis thaliana); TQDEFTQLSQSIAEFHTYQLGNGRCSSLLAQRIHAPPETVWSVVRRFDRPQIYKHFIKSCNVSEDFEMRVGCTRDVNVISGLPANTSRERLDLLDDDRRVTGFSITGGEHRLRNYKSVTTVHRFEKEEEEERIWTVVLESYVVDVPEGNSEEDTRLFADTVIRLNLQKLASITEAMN
| Variant | relative binding score |
| --- | --- |
| T73H | 68.4% |
| K116E | 10.6% |
| E152N | 56.3% |
| I79P | 15.5% |
| T1S | 72.1% |
| K126Y | 73.3% |
| G71L | -6% |
| V100A | 67.9% |
| T154Q | -9.38% |
| N149I | 21.8% |
| S171R | 87.4% |
| I172Y | 58.5% |
| F15M | 28.8% |
| S150P | 10% |

Sample 4
Target: RING finger protein unkempt homolog, zinc fingers 1-6, SBP tag (UNK, Homo sapiens, UniProt Q9C0B0, residues 30-357)
Sequence of UniProt Q9C0B0 (30-357, looked up): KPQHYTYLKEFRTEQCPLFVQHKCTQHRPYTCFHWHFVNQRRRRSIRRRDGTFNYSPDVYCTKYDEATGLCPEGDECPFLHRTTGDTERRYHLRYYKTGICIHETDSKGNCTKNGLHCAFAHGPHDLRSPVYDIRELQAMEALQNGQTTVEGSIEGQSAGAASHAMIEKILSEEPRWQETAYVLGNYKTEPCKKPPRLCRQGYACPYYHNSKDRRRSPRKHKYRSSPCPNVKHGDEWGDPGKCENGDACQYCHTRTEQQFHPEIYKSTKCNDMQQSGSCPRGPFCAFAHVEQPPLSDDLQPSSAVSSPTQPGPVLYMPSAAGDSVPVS
Technique: RNA Bind-n-Seq
Molecule type: RNA
Medium: in vitro
Tested at: 100 nM
Notes: RNA with constant flanks, vertebrate orthologous sites, ends assumed
Reference: input RNA pool
Reading: higher = stronger binding
| Sequence | bound/input enrichment [ratio] |
| --- | --- |
| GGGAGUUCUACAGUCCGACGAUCAUCCUUUCGCACUGUCCCCGGCCAGGGUCGAGGACCAGACGUUUCACUGAGGACCUGCAUUUCAAAUAAUUUUUUUUAAGUUGUUGUAUAGGAAGAGAUGUGCCAAAAACUGCAUCUCAUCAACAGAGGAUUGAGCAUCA | 0.502 |
| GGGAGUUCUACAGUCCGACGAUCCUCUAUGGGCCUCGCAGAGUUGAAAUAAUGGAAGAGGAAAGUGAACAGUAAUCUCCAUUUUAGUAUUUAUGCUUAGGUGUGAAAUAAAUGUUAUUUGUUGAUCAUUUCUAUAAUCCAGAGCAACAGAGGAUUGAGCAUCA | 0.876 |
| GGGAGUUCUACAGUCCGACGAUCUGGGUUACUCCUAUUAUUAUCAAGUAGCUGGAAUUGUGAAGGUUGGAGUAGUUAGAUCUUUAGCUUUUAUUCCUUAUUUUUUUUUUUGUAUUACUCUCCAUGUGUAUAAAUUAUUGAUCACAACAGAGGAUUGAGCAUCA | 5.44 |
| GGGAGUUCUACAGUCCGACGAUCGGACAAAAACGUUUUCACUGGGUUUUGCCUGUAAGAAAACAAUGUACCCGAGCACACACAUAGAGCUUUUUAAUAGCACUAACCAAUGCCUUUUUAGAUGUAUUUUUGAUGUAUAUAUCUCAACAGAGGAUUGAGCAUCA | 0.748 |
| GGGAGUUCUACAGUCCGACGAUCAUUCAUCUCAUUUUAUAUGUCCAAAAUGGCCUUGAAUUUUUAAACAAUUGUAGUUUUAAUUAGAUCUGCCCUUAUGAAGUAUUAUCAGUUCAUCACAGAUAUCUGUCUGAAUUACUUCAGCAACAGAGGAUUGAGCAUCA | 0.481 |
| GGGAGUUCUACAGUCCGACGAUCAUCCCUCAGUGACAGUAUGCCGUCUGUAGCAGAUUCCCACUCGAGUCACUUUUCUGAAUUUAGUUGUUCUGACCUAGAAAGCAUGAAAACUUCUUGUAGUCAUGGUUCCACUGAUUAUCACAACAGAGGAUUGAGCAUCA | 0.484 |
| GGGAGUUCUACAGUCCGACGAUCUUCCUUUUUCUAUUUUUUUUUCUUUCGUUCUUUCUUUUUUUUCCUUUUUUUUCUUUUUUGUAGUUGUUGUUACCCACGCCAUUUUACGUCUCCUUCACUGAAGGGCUAGAGUUUUAACUUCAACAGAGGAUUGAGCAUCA | 6.03 |
| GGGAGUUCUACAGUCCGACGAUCCAGAAAGGCCAAAUCCCCUCUACCCUUCUACUGCUUCUACCAACUGGAAGCACAGAAAACUAGAAUUUCAUUUAUUUUGUUUUUAAAAAUAUACGUUGAUUUCUUGUAACAUCCAAUAGGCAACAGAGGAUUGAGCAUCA | 0.568 |
| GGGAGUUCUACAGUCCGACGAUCCAUUGUAUCCUGCUGUAUAAUAAACAAUCUUAAACAUUUAUCAACUGUUGAUACAAAUGUUAGUCCCUAACCACUUUUUAUAUGUUUUAAAUUUUUGAAAUUCAAGUGUACCUGCCAUAACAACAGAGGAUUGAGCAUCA | 1.25 |
| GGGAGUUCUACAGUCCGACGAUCGGCCCAGGGACUCCUGGGGACAGGUGGUGGGGCCCACUGGCCAUAUCAUCGAGGCCGUUUUAGCUUCAUUUUAAAAAAUAAAAAUUUAACAGUGCCCUUAUUAACCUGUAUGACUGAGAUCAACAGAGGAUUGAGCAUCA | 1.85 |
| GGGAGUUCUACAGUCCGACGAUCUUGGGAGCAGCUCUCCAAAUAGAAAUAGUAGUAAAAAAACCAAACAAAAUGAUAUUUGUGUAGAAAAAACGGAAGUUAAAUCAUGGAAAGUAAAUGCUGCCAGUGUUCCAGGUCCUAAAGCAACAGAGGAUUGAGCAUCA | 1.82 |

A few entries again (sample 4):
| Sequence | bound/input enrichment [ratio] |
| --- | --- |
| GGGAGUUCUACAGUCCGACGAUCAUCCUUUCGCACUGUCCCCGGCCAGGGUCGAGGACCAGACGUUUCACUGAGGACCUGCAUUUCAAAUAAUUUUUUUUAAGUUGUUGUAUAGGAAGAGAUGUGCCAAAAACUGCAUCUCAUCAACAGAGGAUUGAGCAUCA | 0.502 |
| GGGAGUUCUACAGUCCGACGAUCCUCUAUGGGCCUCGCAGAGUUGAAAUAAUGGAAGAGGAAAGUGAACAGUAAUCUCCAUUUUAGUAUUUAUGCUUAGGUGUGAAAUAAAUGUUAUUUGUUGAUCAUUUCUAUAAUCCAGAGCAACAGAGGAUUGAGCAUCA | 0.876 |
| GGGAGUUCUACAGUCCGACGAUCUGGGUUACUCCUAUUAUUAUCAAGUAGCUGGAAUUGUGAAGGUUGGAGUAGUUAGAUCUUUAGCUUUUAUUCCUUAUUUUUUUUUUUGUAUUACUCUCCAUGUGUAUAAAUUAUUGAUCACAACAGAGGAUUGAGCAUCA | 5.44 |
| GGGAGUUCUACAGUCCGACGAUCGGACAAAAACGUUUUCACUGGGUUUUGCCUGUAAGAAAACAAUGUACCCGAGCACACACAUAGAGCUUUUUAAUAGCACUAACCAAUGCCUUUUUAGAUGUAUUUUUGAUGUAUAUAUCUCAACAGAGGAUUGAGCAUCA | 0.748 |
| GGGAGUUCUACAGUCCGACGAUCAUUCAUCUCAUUUUAUAUGUCCAAAAUGGCCUUGAAUUUUUAAACAAUUGUAGUUUUAAUUAGAUCUGCCCUUAUGAAGUAUUAUCAGUUCAUCACAGAUAUCUGUCUGAAUUACUUCAGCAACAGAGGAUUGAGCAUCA | 0.481 |
| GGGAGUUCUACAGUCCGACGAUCAUCCCUCAGUGACAGUAUGCCGUCUGUAGCAGAUUCCCACUCGAGUCACUUUUCUGAAUUUAGUUGUUCUGACCUAGAAAGCAUGAAAACUUCUUGUAGUCAUGGUUCCACUGAUUAUCACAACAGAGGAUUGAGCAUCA | 0.484 |
| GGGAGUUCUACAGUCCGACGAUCUUCCUUUUUCUAUUUUUUUUUCUUUCGUUCUUUCUUUUUUUUCCUUUUUUUUCUUUUUUGUAGUUGUUGUUACCCACGCCAUUUUACGUCUCCUUCACUGAAGGGCUAGAGUUUUAACUUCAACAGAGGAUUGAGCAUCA | 6.03 |
| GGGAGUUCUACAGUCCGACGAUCCAGAAAGGCCAAAUCCCCUCUACCCUUCUACUGCUUCUACCAACUGGAAGCACAGAAAACUAGAAUUUCAUUUAUUUUGUUUUUAAAAAUAUACGUUGAUUUCUUGUAACAUCCAAUAGGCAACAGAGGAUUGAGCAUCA | 0.568 |
| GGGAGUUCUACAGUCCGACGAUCCAUUGUAUCCUGCUGUAUAAUAAACAAUCUUAAACAUUUAUCAACUGUUGAUACAAAUGUUAGUCCCUAACCACUUUUUAUAUGUUUUAAAUUUUUGAAAUUCAAGUGUACCUGCCAUAACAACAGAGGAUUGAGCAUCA | 1.25 |
